Assay results pooled from the literature.
Each line is one published result; not all experiments were run side by side. ± gives the spread as reported.
DDX50 K187R: ATP-dependent RNA helicase DDX50 (DDX50, Homo sapiens, UniProt Q9BQ39, K187R)
UniProt Q9BQ39, sequence (whole entry, unmodified, looked up): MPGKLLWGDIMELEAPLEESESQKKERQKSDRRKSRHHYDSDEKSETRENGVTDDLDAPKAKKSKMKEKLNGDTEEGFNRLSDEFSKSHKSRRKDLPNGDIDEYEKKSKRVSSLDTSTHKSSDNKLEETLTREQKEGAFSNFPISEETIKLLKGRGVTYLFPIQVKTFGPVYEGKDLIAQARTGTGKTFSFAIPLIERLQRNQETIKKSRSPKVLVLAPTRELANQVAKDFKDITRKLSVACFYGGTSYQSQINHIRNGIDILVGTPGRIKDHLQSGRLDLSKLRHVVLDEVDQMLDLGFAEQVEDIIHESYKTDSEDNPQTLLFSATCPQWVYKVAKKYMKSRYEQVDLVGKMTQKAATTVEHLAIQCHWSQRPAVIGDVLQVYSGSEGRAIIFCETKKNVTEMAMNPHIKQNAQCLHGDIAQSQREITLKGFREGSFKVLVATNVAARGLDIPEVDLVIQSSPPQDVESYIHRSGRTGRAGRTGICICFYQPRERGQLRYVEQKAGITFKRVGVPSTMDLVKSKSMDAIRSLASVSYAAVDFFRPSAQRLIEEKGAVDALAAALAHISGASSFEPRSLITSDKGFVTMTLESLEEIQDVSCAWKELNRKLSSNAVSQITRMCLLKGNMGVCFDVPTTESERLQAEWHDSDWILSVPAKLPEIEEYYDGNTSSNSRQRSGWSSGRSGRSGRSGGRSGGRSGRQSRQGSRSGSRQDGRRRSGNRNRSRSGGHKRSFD
USP16 ZnF-UBD domain: Ubiquitin carboxyl-terminal hydrolase 16, ZnF-UBD domain (USP16, Homo sapiens, UniProt Q9Y5T5)
UniProt Q9Y5T5, sequence (whole entry, looked up): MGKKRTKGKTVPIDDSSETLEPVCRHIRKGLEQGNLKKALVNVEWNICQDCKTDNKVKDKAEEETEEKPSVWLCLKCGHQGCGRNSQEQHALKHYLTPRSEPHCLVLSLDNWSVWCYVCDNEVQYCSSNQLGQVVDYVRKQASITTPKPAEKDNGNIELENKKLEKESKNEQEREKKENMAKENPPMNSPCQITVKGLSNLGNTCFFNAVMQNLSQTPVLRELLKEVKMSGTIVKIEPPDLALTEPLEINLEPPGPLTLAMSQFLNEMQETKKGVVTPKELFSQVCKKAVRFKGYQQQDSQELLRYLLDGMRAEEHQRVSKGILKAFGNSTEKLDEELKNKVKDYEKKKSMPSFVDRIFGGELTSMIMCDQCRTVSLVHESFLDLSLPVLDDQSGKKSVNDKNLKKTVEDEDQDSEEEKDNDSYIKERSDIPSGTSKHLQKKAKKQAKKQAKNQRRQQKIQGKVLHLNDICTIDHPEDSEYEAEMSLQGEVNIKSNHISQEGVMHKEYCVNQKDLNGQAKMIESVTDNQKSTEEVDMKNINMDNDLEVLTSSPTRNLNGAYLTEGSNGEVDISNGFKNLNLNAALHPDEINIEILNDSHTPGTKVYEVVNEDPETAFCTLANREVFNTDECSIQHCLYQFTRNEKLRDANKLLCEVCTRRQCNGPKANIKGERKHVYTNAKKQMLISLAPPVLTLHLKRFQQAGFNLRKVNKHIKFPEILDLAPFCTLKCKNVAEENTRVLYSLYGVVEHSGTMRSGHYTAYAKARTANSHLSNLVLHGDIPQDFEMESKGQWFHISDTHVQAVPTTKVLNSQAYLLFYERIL
CYP2D6: Cytochrome P450 2D6 (CYP2D6, Homo sapiens, UniProt P10635)
UniProt P10635, sequence (whole entry, looked up): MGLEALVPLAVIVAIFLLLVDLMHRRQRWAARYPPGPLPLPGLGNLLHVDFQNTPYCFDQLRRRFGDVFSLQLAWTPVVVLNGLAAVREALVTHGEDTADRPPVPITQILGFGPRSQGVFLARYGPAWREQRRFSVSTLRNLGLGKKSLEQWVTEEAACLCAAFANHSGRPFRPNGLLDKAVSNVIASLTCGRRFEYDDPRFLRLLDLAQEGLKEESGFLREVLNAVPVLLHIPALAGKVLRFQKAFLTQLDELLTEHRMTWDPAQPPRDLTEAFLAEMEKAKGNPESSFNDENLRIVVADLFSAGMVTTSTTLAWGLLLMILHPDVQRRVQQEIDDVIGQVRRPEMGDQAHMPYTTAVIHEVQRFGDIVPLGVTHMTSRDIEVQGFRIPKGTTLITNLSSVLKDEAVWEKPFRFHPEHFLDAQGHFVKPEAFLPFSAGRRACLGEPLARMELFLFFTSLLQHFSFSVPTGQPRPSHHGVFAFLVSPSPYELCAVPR
UniProt Q16774, sequence (whole entry, unmodified, looked up): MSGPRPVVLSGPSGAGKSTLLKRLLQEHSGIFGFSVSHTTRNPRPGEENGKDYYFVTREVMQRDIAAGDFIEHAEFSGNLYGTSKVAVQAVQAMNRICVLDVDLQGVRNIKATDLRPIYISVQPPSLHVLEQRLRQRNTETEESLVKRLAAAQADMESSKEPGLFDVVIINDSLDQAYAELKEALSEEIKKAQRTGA
UniProt Q9NZC2, sequence (whole entry, looked up): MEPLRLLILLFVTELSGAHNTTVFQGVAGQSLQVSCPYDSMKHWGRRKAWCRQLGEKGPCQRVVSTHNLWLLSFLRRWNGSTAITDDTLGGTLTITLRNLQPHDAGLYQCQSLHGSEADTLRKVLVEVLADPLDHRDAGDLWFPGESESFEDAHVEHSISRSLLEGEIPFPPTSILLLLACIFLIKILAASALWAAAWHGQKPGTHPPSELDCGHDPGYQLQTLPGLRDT
UniProt Q6NT16, sequence (whole entry, unmodified, looked up): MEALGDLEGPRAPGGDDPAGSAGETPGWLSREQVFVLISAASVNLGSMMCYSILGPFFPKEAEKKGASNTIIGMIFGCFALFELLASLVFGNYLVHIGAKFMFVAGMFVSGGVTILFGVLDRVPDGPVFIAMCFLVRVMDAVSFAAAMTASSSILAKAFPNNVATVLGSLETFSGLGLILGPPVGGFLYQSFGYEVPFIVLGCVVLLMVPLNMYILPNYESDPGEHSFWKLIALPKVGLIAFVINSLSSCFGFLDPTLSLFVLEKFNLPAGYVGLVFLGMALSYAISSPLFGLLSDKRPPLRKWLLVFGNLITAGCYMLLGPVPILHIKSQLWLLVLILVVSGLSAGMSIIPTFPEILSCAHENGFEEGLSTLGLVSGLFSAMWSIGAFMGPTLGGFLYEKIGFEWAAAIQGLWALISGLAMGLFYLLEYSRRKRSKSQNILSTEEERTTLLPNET
UniProt O94913, sequence (whole entry, looked up): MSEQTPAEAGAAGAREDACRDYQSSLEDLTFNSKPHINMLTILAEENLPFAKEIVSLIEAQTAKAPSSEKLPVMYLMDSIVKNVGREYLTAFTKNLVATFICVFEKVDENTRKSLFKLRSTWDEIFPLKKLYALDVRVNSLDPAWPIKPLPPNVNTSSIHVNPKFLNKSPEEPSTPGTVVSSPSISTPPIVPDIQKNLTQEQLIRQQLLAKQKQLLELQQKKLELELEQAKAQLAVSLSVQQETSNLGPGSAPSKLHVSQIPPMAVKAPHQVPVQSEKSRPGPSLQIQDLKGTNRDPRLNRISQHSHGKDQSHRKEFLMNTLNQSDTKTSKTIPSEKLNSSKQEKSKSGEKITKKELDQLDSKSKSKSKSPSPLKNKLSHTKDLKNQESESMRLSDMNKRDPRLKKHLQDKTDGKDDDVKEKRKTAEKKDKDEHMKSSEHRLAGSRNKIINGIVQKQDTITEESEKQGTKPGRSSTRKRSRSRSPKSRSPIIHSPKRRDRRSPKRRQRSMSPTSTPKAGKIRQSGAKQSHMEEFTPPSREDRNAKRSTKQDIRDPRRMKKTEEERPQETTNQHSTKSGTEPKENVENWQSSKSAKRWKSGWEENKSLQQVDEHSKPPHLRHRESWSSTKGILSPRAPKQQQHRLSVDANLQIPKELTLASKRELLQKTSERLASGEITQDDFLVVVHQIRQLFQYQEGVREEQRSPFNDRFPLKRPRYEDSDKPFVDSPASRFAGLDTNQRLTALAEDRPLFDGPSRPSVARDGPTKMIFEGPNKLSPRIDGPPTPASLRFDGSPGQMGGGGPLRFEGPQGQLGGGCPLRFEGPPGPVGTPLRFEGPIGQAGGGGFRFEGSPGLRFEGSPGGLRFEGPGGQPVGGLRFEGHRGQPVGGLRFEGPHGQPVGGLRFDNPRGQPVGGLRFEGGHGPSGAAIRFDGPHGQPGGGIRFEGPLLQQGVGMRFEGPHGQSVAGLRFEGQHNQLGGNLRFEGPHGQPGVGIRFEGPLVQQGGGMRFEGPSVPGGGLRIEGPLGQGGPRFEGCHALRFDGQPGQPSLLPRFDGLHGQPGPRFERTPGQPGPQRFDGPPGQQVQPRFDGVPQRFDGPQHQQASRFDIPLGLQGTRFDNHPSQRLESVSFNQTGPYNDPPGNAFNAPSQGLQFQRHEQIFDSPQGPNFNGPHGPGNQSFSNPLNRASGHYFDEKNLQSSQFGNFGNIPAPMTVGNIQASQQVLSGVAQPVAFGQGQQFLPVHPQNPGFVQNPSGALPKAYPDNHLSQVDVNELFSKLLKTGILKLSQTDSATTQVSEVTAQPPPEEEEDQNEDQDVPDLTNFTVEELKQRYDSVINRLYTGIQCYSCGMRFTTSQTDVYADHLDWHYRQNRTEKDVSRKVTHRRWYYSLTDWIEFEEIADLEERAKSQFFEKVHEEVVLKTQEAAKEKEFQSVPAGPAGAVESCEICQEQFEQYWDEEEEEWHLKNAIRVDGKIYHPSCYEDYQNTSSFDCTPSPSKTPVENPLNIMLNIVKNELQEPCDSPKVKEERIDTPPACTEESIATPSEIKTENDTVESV
UniProt Q9BY41, sequence (whole entry, looked up): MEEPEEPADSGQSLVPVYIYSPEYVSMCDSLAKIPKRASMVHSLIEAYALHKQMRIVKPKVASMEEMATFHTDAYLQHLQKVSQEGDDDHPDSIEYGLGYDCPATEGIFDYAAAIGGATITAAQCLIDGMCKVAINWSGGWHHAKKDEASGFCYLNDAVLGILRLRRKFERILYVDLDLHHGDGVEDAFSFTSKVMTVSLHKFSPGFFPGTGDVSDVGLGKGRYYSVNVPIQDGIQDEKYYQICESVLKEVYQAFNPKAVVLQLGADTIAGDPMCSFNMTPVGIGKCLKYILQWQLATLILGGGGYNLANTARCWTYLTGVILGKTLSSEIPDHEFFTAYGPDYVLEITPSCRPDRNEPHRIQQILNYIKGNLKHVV

Structure (SMILES)	target	assay	test system	conditions	Kd
Nc1ncnc2c1ncn2[C@@H]1O[C@H](COP(=O)(O)OP(=O)(O)OP(=O)(O)O)[C@@H](O)[C@H]1O	DDX50 K187R	binding, microscale thermophoresis	–	25 °C, no glucose	6.95 ± 3.82 µM
Nc1ncnc2c1ncn2[C@@H]1O[C@H](CSCC[C@H](N)C(=O)O)[C@@H](O)[C@H]1O	O-methyltransferase (Sorghum bicolor, UniProt A0A1B6PFV1)	binding	–	with: saturating resveratrol	3.96 ± 0.6 µM
O=C(O)CCOc1ccccc1	USP16 ZnF-UBD domain	–	–	–	> 1000 µM
Nc1nc(-c2ccc(Cl)c(S(N)(=O)=O)c2)cs1	Carbonic anhydrase 7 (CA7, Homo sapiens, UniProt P43166)	thermal shift	–	pH 7.0, 25 °C	0.067 µM
C[N+](C)(C)Cc1cccc(N=Nc2cccc(C[N+](C)(C)C)c2)c1	muscarinic receptor, Rana	agonist-induced potassium current, antagonist, Schild plot intercept	atrial trabeculae	with: carbachol	5 µM
C=C1CCN([C@H](C)[C@](O)(Cn2cncn2)c2ccc(F)cc2F)CC1	CYP2D6	binding	–	20 min, pH 7.4, purified protein, 2% DMSO	28.2 µM
O=C(O)CCc1cnn(-c2ccccc2)c1	USP16 ZnF-UBD domain	–	–	–	> 1000 µM
CC(=O)NCC(=O)N[C@@H](Cc1ccc(O)cc1)C(=O)NCC(=O)N[C@@H](CO)C(=O)N[C@@H](CO)C(=O)N[C@@H](CO)C(=O)N[C@@H](CCCNC(=N)N)C(=O)N[C@@H](CCCNC(=N)N)C(=O)N[C@@H](C)C(=O)N1CCC[C@H]1C(=O)N[C@@H](CCC(N)=O)C(=O)N[C@H](C(N)=O)[C@@H](C)O	IGF-1R human	binding, microscale thermophoresis	–	–	12 ± 1.1 µM
O=C(O)COc1cnc2ccccc2n1	USP16 ZnF-UBD domain	–	–	–	> 1000 µM
Nc1ncnc2c1ncn2[C@@H]1O[C@H](CO[P@](=O)(O)O[P@](=O)(O)O[P@@](=O)(O)S)[C@@H](O)[C@H]1O	GUK1 (Homo sapiens, UniProt Q16774, S18A)	binding, ITC	–	25 °C, with: GMP	140 ± 10 µM
CN1C2CCCC1CC(NC(=O)c1nn(C)c3ccccc13)C2 (stereo not drawn)	Soluble acetylcholine receptor (Aplysia californica, UniProt Q8WSF8)	homologous competition SPA	–	with: [3H]compound	1.18 ± 0.015 µM
C=C1CC(C(=O)Nc2cc(C(=O)NC)cc(-c3csc(C(=O)OC)c3)c2OC)C1	Triggering receptor expressed on myeloid cells 2 (Homo sapiens, UniProt Q9NZC2)	binding	–	–	218 µM
c1ccc(-c2ccc(OCCn3ccnc3)cc2)cc1	CYP2D6	binding	–	20 min, pH 7.4, purified protein, 2% DMSO	2.84 µM
Brc1ccc2nccnc2c1	Casein kinase I isoform alpha (CSNK1A1, Homo sapiens, UniProt P48729)	binding, surface plasmon resonance	–	up to 50 µM	no binding
O=C(NO)c1cnc(NC2(c3ccccc3)CC2)nc1	Histone deacetylase 8 (HDAC8, Homo sapiens, UniProt Q9BY41)	inhibitor, competition pulldown	SW620 and MV4-11 lysate	1 h	> 30.2 µM
OC[C@H]1OC(O)[C@H](O)[C@@H](O)[C@@H]1O (stereo partly drawn)	DDX50 K187R	microscale thermophoresis	PBST	25 °C	12.1 ± 8.3 µM
NCCCNCCCCNCCCN	MFS-type transporter SLC18B1 (SLC18B1, Homo sapiens, UniProt Q6NT16, D255A)	binder	–	–	402 µM

Structure (SMILES)	target	assay	test system	conditions	Kd
OC(Cn1ccnc1)c1ccc(Cl)cc1Cl (stereo not drawn)	CYP2D6	binding	–	20 min, pH 7.4, purified protein, 2% DMSO	14.8 µM
O=C(O)CNc1ccc2nncn2n1	USP16 ZnF-UBD domain	–	–	–	> 1000 µM
Nc1ncnc2c1ncn2[C@@H]1O[C@H](COP(=O)(O)OP(=O)(O)O)[C@@H](O)[C@H]1O	GUK1 (Homo sapiens, UniProt Q16774, N171A)	binding, ITC	–	25 °C, with: GMP	> 200 µM
COc1cc2c(cc1OC)[C@H]1C[C@@H](O)[C@H](CC(C)C)CN1CC2	MFS-type transporter SLC18B1 (SLC18B1, Homo sapiens, UniProt Q6NT16, Y51A)	binder	–	radiolabeled protein variants	168 µM
COc1cccc2c1C(=O)c1c(O)c3c(c(O)c1C2=O)C[C@@](O)(C(=O)CO)C[C@@H]3O[C@H]1C[C@H](N)[C@@H](O)[C@H](C)O1	Cytochrome P450 2J2 (CYP2J2, Homo sapiens, UniProt P51589)	–	–	2 min, pH 7.4	14.7 ± 1.99 µM
NC(=O)[C@H]1CCCN1C(=O)CCC(=O)O	USP16 ZnF-UBD domain	–	–	–	154 µM
CCC1(c2cnc[nH]2)Cc2ccccc2C1	CYP2D6	binding	–	20 min, pH 7.4, purified protein, 2% DMSO	4.15 µM
Cc1cc2nc3c(=O)[nH]c(=O)nc-3n(C[C@H](O)[C@H](O)[C@H](O)COP(=O)(O)OP(=O)(O)OC[C@H]3O[C@@H](n4cnc5c(N)ncnc54)[C@H](O)[C@@H]3O)c2cc1C	Pre-mRNA cleavage complex 2 protein Pcf11 (PCF11, Homo sapiens, UniProt O94913)	binding, MS pulldown competition	SW-620 cell lysate	–	0.062 µM
O=C(O)CCn1c(=O)oc2ccccc21	USP16 ZnF-UBD domain	–	–	–	981 µM
C[n+]1cn([C@@H]2O[C@H](COP(=O)(O)O)[C@@H](O)[C@H]2O)c2nc(N)[nH]c(=O)c21	m7GpppX diphosphatase, WT/mutant heterodimer (DCPS, Homo sapiens, UniProt Q96C86)	binding, Trp fluorescence quenching	10% glycerol	20 °C	0.169 µM
O=C(O)CCc1nc2ncccn2n1	USP16 ZnF-UBD domain	–	–	–	> 1000 µM
C=Cn1ccnc1	CYP2D6	binding	–	20 min, pH 7.4, purified protein, 2% DMSO	186 µM
CCCCCCCCCCCCCC(=O)O	uncharacterized protein (Kocuria marina, UniProt A0A0B0D9P4)	heme spectral shift, substrate, UV-visible spectral titration	–	–	7.32 µM
O=C(O)CCC(=O)c1ccc2c(c1)CCC(=O)N2	USP16 ZnF-UBD domain	–	–	–	167 µM
Nc1ncnc2c1ncn2[C@@H]1O[C@H](COP(=O)(O)OP(=O)(O)O)[C@@H](O)[C@H]1O	Creatine kinase U-type, mitochondrial (CKMT1A, Homo sapiens, UniProt P12532, E265D)	microscale thermophoresis	–	pH 7.0, E227D mutant, no substrate	25 ± 9 µM
Nc1nc2c(ncn2[C@@H]2O[C@@H]3COP(=O)(O)O[C@H]4[C@@H](O)[C@H](n5cnc6c(N)ncnc65)O[C@@H]4COP(=O)(O)O[C@H]3[C@H]2O)c(=O)[nH]1	capV (Acinetobacter baumannii, UniProt A0A505MGQ1)	–	–	–	0.00268 ± 0.00024 µM

Some of these lines once more:
Structure (SMILES)	target	assay	test system	conditions	Kd
NC(=O)[C@H]1CCCN1C(=O)CCC(=O)O	USP16 ZnF-UBD domain	–	–	–	154 µM
O=C(O)COc1cnc2ccccc2n1	USP16 ZnF-UBD domain	–	–	–	> 1000 µM
Brc1ccc2nccnc2c1	Casein kinase I isoform alpha (CSNK1A1, Homo sapiens, UniProt P48729)	binding, surface plasmon resonance	–	up to 50 µM	no binding
C=Cn1ccnc1	CYP2D6	binding	–	20 min, pH 7.4, purified protein, 2% DMSO	186 µM
NCCCNCCCCNCCCN	MFS-type transporter SLC18B1 (SLC18B1, Homo sapiens, UniProt Q6NT16, D255A)	binder	–	–	402 µM
